Measurements gathered from unrelated publications.
A part holds a random share of what one study measured. Changes are numbered by the printed parent chain.

Study 1
Target: RNA binding protein fox-1 homolog 2, RRM domain, GST-SBP tag (RBFOX2, Homo sapiens, UniProt O43251-10, residues 100-194)
Method: RNA Bind-n-Seq
Molecule type: RNA
Sample: in vitro
Concentration: 365 nM
Setting: natural RNA segment, single round, ends assumed
Reference: no-protein control
Reading: higher = stronger binding
Constant ends, left off below: GGGAGUUCUACAGUCCGACGAUC … UGGAAUUCUCGGGUGCCAA
Target sequence (chain): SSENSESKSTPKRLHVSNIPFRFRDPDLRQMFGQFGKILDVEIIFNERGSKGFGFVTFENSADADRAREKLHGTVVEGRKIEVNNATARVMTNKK
Strand | RBNS enrichment (R)
CUGUUUUAUGGAUGGCAGCUUGGAGCAUAGCAAGAAGUUGGAGGAUUUGAAUUCCAUUCCCAGUUCUCAUUGUGUUUUGUUUCUUAAAACUAUAAUAAUCGGUUACUGUU | 0.59
CAAACUUAACAUUAGAAAAUAAGGUCCAGGGCCGGACACAGUGGCCCAUGCCUGUAAUCCCAGCACUUUGGGGGGCCAAGGCAGGCUGGAUCACCUGAGGACAGGAGUUC | 0.762
GUAUUAAACUCCAAAUGAGCCAUAGGAAGGCACUACAUGAAAUAAUGCACUGAGUAUGCAAUGCUAUCACUGUCUUUGACUGUGAUUUUAUGUUUAAAAAGUAUGUUCUA | 0.372
GUGUGUAUGAAAUCUGUGUUUCCAAUCUCUCUCUCCCAGAUCGGUGACAGUCACUAGCUUGUCCUGAGAAGAUAUUUAAUUUUGCUAACACUCAGCUCUGCCCUCCCUUG | 0.569
CAGGACUUUUUUCUUUAAAGCUAGUCAUUUCAAAAGCAUAUUGUAUUUUUUUGAAUGACUACAGUAUGGACAAUUUCAAAAACCAAAACCCACUUUGGAUUGGUGGAAGU | 0.476
GCUAUGUGAUGCUAGCCGGUGGCUUUCUGGGCUAGGCCCCAGUUUGAGGCUCCCCUGGGAACUAGAGCCAGGAACAGCCAGUGGCACUGACAAGGGGACGGAGUCCAAGG | 0.919
CUGAGAACCAAAGCAACCCCAGGUGCAUAAUUGUAUAACUUACAGUCUCCCAUCAAGACUACCUCAUAGUCCAGUAGAUCCACUCCGUGACCAAGGACAUCAUGCUCUGU | 0.408
AUUCUUAGGUCUAACUCGAUUUUUGUGCUCAGGGAAGAUGCACUGAUGUCUUCAAAAAAAAAUCAACAUGCAGAAUGGAAUUUGCAAUAAAGGCUUUUCUAAAACUGGCU | 0.674
UGCAUAGCCAGGAUGACGGCUUUCAUGUCCCAGAGACCUGUUGUGCUGUGUAUUUUGAUUUCCUGUGUAUGCAAAUGUGUGUAUUUACCAUUGUGUAGGGGGCUGUGUCU | 0.449
AUUUCCUGUCAUAGGAAGCUCCUUGGAAGAAGGGAUGGGGGGAUGAGAUCAUGUUUACAGACCUGUUUUGUCAUCCUGCUGCCAAGAAGUUUUUUAAUCACUUGAAUAAA | 0.235
CCCUCCUAUUGUAUUCACUUCUUCUAUUUUCUUAGAAUUCUUGCAACUAAUGAUUGUUCCCCUCCUUCUCCCACCACCAAGUUCUUUGUCCUUCCAACCUCCCGGAAAGG | 1.05
GUUUCUUGUAAAGGAAGCCAGAGUUGACAGUACAAAGGGUCGUGGCCAGCCCUGCAGCUUCAGCACCUGCCCCACCCAGAGUGGGAGUCAGGUGGAGCCACCUGCUGGGC | 0.214

Study 2
Target: Sal-like protein 4, full length isoform B (SALL4, Homo sapiens, UniProt Q9UJQ4-2, residues 1-616)
Method: universal PBM
Molecule type: double-stranded DNA, one strand shown
Sample: in vitro
Concentration: not given
Setting: 8-mer, flanks averaged, mean of replicates
Reading: higher = stronger binding
Construct (chain): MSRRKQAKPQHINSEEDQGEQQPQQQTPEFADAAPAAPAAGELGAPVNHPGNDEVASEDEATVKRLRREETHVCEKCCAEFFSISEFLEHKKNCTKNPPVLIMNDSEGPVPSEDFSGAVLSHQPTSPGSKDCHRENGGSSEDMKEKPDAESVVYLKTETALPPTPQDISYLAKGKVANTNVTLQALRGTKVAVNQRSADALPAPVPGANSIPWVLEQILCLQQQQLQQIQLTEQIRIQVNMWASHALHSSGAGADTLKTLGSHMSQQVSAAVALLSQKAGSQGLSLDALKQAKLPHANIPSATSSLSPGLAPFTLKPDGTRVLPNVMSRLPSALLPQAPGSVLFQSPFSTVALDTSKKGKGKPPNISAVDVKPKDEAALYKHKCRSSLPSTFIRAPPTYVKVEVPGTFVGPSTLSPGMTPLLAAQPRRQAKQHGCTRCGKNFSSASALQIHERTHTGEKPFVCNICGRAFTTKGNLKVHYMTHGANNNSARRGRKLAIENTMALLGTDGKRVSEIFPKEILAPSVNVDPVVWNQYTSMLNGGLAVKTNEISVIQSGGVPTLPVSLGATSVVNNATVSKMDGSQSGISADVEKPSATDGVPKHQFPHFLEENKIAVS
Strand | E-score
TTAAGCAA | 0.218
CGGACCCG | -0.344
GGATGTAC | 0.0671
GCACGTGA | -0.0395
CGACTGGA | -0.198
CTGTTGGA | 0.0929
AAGCAAAC | 0.0828
CGATCCAA | -0.0233
ATTCGTAC | 0.226
ATGGTGAG | -0.113
AGCACTTC | 0.0224
CCCATATC | 0.155
ATTAAAAG | 0.276
CCACCGAG | -0.275
ATAAGCGC | -0.0509
AACTTTCA | 0.208

Study 3
Target: CCNA1, cyclin fold, Cln2 fusion (human)
Method: yeast growth competition, sequencing
Sample: yeast
Setting: weak parent motif
Reference: not given
Reading: higher = stronger binding
Starting sequence: SLBP docking peptide (human); ARYKRKLLINDFG
Variant | normalised enrichment score
ARYKRKLLINNFG [D11N] | 0.026
ARYKRKALINDFG [L7A] | 0.088
ARYKRKLLINDFL [G13L] | -0.00861
ARYKRKLLINDCG [F12C] | 0.0742
DRYKRKLLINDFG [A1D] | 0.479
ARSKRKLLINDFG [Y3S] | 0.348
ARYKRKLLINDWG [F12W] | 0.166
ARYKRKWLINDFG [L7W] | -0.107
ARYCRKLLINDFG [K4C] | 0.168
ARYKRTLLINDFG [K6T] | 0.373
ARYKRKLLINDQG [F12Q] | 0.366
ARYKCKLLINDFG [R5C] | 0.723
ARYKRKLLIDDFG [N10D] | 0.291
ARYKRELLINDFG [K6E] | 0.252
ARYKIKLLINDFG [R5I] | 0.268
ARMKRKLLINDFG [Y3M] | 0.649
AAYKRKLLINDFG [R2A] | 0.203
ARYQRKLLINDFG [K4Q] | 0.468
ARYKRKLLQNDFG [I9Q] | 0.284
ARYKRKLLINYFG [D11Y] | 0.367
ARIKRKLLINDFG [Y3I] | 0.579
ARYKRILLINDFG [K6I] | 0.213
ARYIRKLLINDFG [K4I] | -0.165
ARYLRKLLINDFG [K4L] | 0.353
ARYKRKLLINDFE [G13E] | 0.566

Study 4
Target: ABI1, truncated, D143A, DHFR fusion (Arabidopsis thaliana)
Method: DHFR PCA, deep sequencing
Sample: yeast
Setting: methotrexate growth selection, single substitutions
With: (+)-ABA 0.032 µM
Reference: wild-type fitted maximum
Reading: higher = stronger binding
Starting sequence: PYL1, truncated, DHFR fusion (Arabidopsis thaliana); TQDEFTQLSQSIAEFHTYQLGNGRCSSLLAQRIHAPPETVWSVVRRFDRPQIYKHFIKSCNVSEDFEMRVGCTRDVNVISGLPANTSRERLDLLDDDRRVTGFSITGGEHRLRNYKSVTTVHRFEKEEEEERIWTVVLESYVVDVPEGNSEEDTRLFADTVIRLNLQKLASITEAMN
Variant | relative binding score
E64V | 6.14%
E129S | 38.5%
K126C | 53.8%
L29G | 3.75%
R123M | 5.46%
Y53T | -4.1%
L94T | 0.292%
Q51H | 10.6%
R24S | 5.97%
Q10I | 6.14%
D96Q | -1.82%
N165I | 3.7%
T101F | 67.3%
D65A | 4.81%
G148L | -6.18%
H110I | 5.82%
V62D | 3.84%

Study 5
Target: Ras GTPase-activating protein-binding protein 1, full length (G3BP1, Homo sapiens, UniProt Q13283)
Sequence of UniProt Q13283 (whole entry, looked up): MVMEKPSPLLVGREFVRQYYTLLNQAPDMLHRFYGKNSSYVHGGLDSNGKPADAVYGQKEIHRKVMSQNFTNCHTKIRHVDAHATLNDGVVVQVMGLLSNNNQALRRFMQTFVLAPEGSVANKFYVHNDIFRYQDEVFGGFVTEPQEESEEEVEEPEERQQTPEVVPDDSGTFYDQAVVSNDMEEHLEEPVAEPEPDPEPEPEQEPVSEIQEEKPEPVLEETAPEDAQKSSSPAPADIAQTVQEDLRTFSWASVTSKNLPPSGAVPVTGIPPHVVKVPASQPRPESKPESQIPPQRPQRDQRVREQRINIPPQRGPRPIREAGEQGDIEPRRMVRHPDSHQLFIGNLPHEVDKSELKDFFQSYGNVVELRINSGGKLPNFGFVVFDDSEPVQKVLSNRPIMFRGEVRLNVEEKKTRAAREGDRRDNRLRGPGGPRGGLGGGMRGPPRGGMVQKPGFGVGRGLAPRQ
Method: RNA Bind-n-Seq
Molecule type: RNA
Sample: in vitro
Concentration: 200 nM
Setting: whole 134-nt RNA, ends assumed
With: 150 mM KCl
Reference: input library
Reading: higher = stronger binding
Constant ends, left off below: GGGAGUUCUACAGUCCGACGAUC … UGGAAUUCUCGGGUGUCAAGG
Strand | log2 enrichment
ACCAUGCAGGUGGGCAUCUUUGCGAAGUGGGGCAAGGGGGGGAUAGGGAGGGGGGUAACACUUUGGGAACAGGUGGUCCCAGGUCGUUUC | 1.5
CUGUGCUACACAUCGUAUGUACCGAAUCGGAAAAAAAGGGAAAAAAAGGGGAAAAAAAGGGGAAAGUAUUAUGUUACGCCGUUCGGAUCU | -0.69
UAACUUUAGAGGAGGAUCUGAUGGAUAUGGCAGUGGACGUGGAUUUGGGGAUGGCUAUAAUGGCUAUGGAGGAGGACCUGGAGGUGGCAA | 0.154
ACCAUGCAGGUGGGCAUCUUUGGGAAGUGGGGCAAGGGGGGGAUAGGGAGGGGGGUAACACUUUGGGAACAGGUGGUCCCAGAAAGUUUC | 0.926
CCUCAAGUCCUGUGCUACACAUCGUAUGUACCGAAUCGGGUGGUGGGUGGGGAAAGUAUUAUGUUACGCCGUUCGGAUCUGCACUUCCAG | 1.03
CAAGUCCUGUGCUACACAUCGUAUGUACCGAAUCGGAAAGGAAAGGGGAAAGGGGAAAGUAUUAUGUUACGCCGUUCGGAUCUGCACUUC | -0.349
UGGCCCUGGUGGCAUACGGGGAGGAAGAGGUGGCCUCAUGGAUCGUGGUGGUCCCGGUGGAAUGUUCAGAGGUGGCCGUGGUGGAGACAG | 0.207
CACAGACAACACGCACCCACACAGACAGAGAGGGAAGGGGUUGGGAUGGGGACAGGGUGCACAGCAGGGCGGGGUAGGACCCCAGCCCCU | 1.97
UUGUGGCUGAGAGACAGUUUGCAAAGGAACAACAUACAGAUGGGACACUAAAGGAAGUUGGAGAAGAUUAUCAAAUCGCAAUCCCAGAUU | 0.186
UCCUGUGCUACACAUCGUAUGUACCGAAUCAAAUUUUUUUAAACCCAAACCCCCCCAAAAAAGUAUUAUGUUACGCCGUUCGGAUCUGCA | -0.0507
UGUGCUACACAUCGUAUGUACCGAAUCGGGGUUUUUUUGGGGUUUUUUUGGGGAAAAAGGGGAAAGUAUUAUGUUACGCCGUUCGGAUCU | -0.502
UAACUUUAGAGGAGGAUCUGAUGGAUAUGGCAGUGGACGUGGAUUUGGGGAUGGCUAUAAUGAGUAUGGAGGAGGACCUGGAGGUGGCAA | 0.484
AACAUGCAGGUGGGCAUCUUUGGGAAGUGGGGCAAGGGGGGGAUAGGGAGGGGGGUAACACUUUGGGAACAGGUGGUCCCAGGUCGUUUC | 1.3
UGUGCUACACAUCGUAUGUACCGAAUCGGGGUUUUUUUGGGGUUUUUUUGGGGUUUUUUUGGAAAGUAUUAUGUUACGCCGUUCGGAUCU | -0.429

Study 6
Target: PABPC1L2, full length, GST fusion (mouse, UniProt A0ABA7IW68)
Method: RNAcompete
Molecule type: RNA
Sample: in vitro
Concentration: 20 nM
Setting: 7-mer, probes averaged, single round
Reference: mean of 7-mers
Reading: higher = stronger binding
Construct (chain): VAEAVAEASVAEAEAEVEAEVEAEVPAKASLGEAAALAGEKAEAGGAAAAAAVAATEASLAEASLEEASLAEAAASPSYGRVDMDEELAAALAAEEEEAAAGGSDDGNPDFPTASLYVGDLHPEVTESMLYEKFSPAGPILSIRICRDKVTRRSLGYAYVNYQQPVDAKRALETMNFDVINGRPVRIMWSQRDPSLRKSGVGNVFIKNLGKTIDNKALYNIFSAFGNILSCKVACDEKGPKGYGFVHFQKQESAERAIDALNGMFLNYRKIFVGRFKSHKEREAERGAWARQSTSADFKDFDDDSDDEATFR
Strand | 7-mer Z-score
UGGGAAG | 0.0225
AAGCCGA | 0.0207
AGCUCCA | -0.313
UACACAG | -0.2
GUGGAUG | 0.321
CACUAUC | -0.151
ACAGCAG | 0.323
GUUACAU | -0.128
ACCAAGG | 0.133
CAUGGGU | -0.0573
UCAUAAC | -0.175
GCGAUUC | -0.246
CGGACCA | -0.00289
UACGCGA | -0.108
GCAGGUU | -0.0554
CGUACGC | -0.224
UGUAAGA | -0.0228
UUCGUCU | -0.541
GACUGCC | -0.193
UCGGCAG | 0.142
GUGGUAA | 0.16
CUUAGGU | -0.284
AAUCCGG | -0.0156
ACAUGAC | 0.104

For quick reference, copied from above (study 3):
Variant | normalised enrichment score
ARYKRKLLIDDFG [N10D] | 0.291
ARYKRELLINDFG [K6E] | 0.252
ARYKIKLLINDFG [R5I] | 0.268
ARMKRKLLINDFG [Y3M] | 0.649
AAYKRKLLINDFG [R2A] | 0.203
ARYQRKLLINDFG [K4Q] | 0.468
ARYKRKLLQNDFG [I9Q] | 0.284
ARYKRKLLINYFG [D11Y] | 0.367
ARIKRKLLINDFG [Y3I] | 0.579
ARYKRILLINDFG [K6I] | 0.213
ARYIRKLLINDFG [K4I] | -0.165
